Results collected from several papers.
Every numbered part comes from another study and shows a few of its results, in no order.

Study 1 — method: protein-binding microarray; molecule type: double-stranded DNA, one strand shown; medium: in vitro; tested at: 2540 nM top; notes: 60-bp whole probe; with: salmon DNA 0.4 mg/ml; baseline: random background probes; direction: higher = stronger binding; shared flanks, not repeated: GCCTAGCAC … GTCTTGATTCGCTTGACGCTGCTG
Target: Interferon regulatory factor 3, full length, phosphomimetic (IRF3, Homo sapiens, UniProt Q14653, residues 1-427, S386D/S396D/S398D/S402D/T404D/S405D)
UniProt Q14653, sequence (whole entry, unmodified, looked up): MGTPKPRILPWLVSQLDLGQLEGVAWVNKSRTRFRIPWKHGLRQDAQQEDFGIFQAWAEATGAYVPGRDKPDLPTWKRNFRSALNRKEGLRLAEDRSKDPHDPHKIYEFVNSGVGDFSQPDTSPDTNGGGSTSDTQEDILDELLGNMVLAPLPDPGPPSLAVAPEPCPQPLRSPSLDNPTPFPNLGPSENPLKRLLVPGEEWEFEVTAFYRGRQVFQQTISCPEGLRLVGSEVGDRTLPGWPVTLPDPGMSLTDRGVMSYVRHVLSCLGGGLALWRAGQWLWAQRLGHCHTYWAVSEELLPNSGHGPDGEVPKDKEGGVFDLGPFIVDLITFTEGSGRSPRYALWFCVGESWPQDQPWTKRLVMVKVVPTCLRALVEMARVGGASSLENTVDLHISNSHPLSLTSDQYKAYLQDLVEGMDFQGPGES
For `GACGGTTTCGACTATCGGGAAGTGCTA`, “fitted relative affinity” read 3.02 z-score.
For `GACAGTTTCGGTTTCGGGACGTGCTAG`, “fitted relative affinity” read 11.5 z-score.
Under “fitted relative affinity”, `TTAGGTCTCGACTTTCGGTTAGTGCTA` is recorded as 1.04 z-score.
`TTCATTTTCTTTAACTCATTGTGCTAG` — result for “fitted relative affinity”: 1.71 z-score.
Under “fitted relative affinity”, `TTAGATTTCGGTATCGGTTAGTGCTAG` is recorded as 5.82 z-score.
`TTAGGTCTGGACACTGGGTTAGTGCTA` — result for “fitted relative affinity”: -0.779 z-score.
`TCAAGTCTTGTTTTACAACTGTGCTAG` — result for “fitted relative affinity”: 0.409 z-score.
`GACGGACTGGGTATCAGGACGTGCTAG`: “fitted relative affinity” -0.13 z-score.
`GACGATTTCAGTTCCGAGTCGTGCTAG`: “fitted relative affinity” 3.79 z-score.
`TCACATACTAGTTTCCAACTGTGCTAG` — result for “fitted relative affinity”: 3.85 z-score.
`TCACTTTTGCTTTACTGACTGTGCTAG` — result for “fitted relative affinity”: 2.51 z-score.
For `TCACCTGAATGAAAACATACTGTGCTA`, “fitted relative affinity” read 0.29 z-score.
`TCATGTCCTCCTCTCTCACTGTGCTAG` — result for “fitted relative affinity”: 0.663 z-score.
For `GACGGTTTGGGGTATCGGGACGTGCTA`, “fitted relative affinity” read 0.0269 z-score.
For `GACAGTTTCGGGACTGGGGACGTGCTA`, “fitted relative affinity” read 4.65 z-score.
Under “fitted relative affinity”, `GACGATCTCAGACTGAAGACGTGCTAG` is recorded as 0.467 z-score.
`GACGGTTTCGGTATCGGGGCGTGCTAG` — result for “fitted relative affinity”: 7.87 z-score.
For `CTAATTTTCATTTTCCAAATGTGCTAG`, “fitted relative affinity” read 5.81 z-score.
`GACGGTGCCCTTTTCCTGACGTGCTAG`: “fitted relative affinity” 3.49 z-score.

Study 2 — method: protein binding microarray; molecule type: double-stranded DNA, one strand shown; medium: in vitro; tested at: not given; baseline: not given; direction: higher = stronger binding
Target: Histone acetyltransferase KAT6A, winged helix 2, GST fusion (KAT6A, Homo sapiens, UniProt Q92794, residues 85-181)
Notes: 8-mer, flanks averaged, mean of 2 arrays, mostly near background
Residues (chain): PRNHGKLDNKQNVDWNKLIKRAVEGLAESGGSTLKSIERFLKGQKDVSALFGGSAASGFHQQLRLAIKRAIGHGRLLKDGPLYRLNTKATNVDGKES
For `CTCGACCA`, the E-score was -0.0657.
`CATAAACC` has an E-score of 0.0231.
`AACAAAAT` has an E-score of -0.0854.
`CCAAGTTC` has an E-score of -0.105.
`TGATTAAA` gave an E-score of 0.0203.
With `GCAGACGC` the E-score was 0.0917.
The E-score of `ACTGCGTA` is reported as 0.0538.
With `ATCTTGGG` the E-score was -0.0713.
With `GCGACCGC` the E-score was 0.151.
The E-score of `AGAAATGA` is reported as 0.13.
The E-score of `AGTGGTAA` is reported as -0.043.
With `AAAATGAA` the E-score was 0.0201.
With `AGGCCACG` the E-score was 0.0297.
The E-score of `ATGTTATG` is reported as -0.0105.
`CCAAGGAC` gave an E-score of -0.00999.
The E-score of `GCTAGCCC` is reported as -0.165.
For `ACGTAATC`, the E-score was -0.265.
For `ACATGAGC`, the E-score was -0.00201.
With `CAGAAGAA` the E-score was -0.0315.

Study 3 — method: RNA Bind-n-Seq; molecule type: RNA; medium: in vitro; tested at: 365 nM; baseline: no-protein control; direction: higher = stronger binding
Target: RNA binding protein fox-1 homolog 2, RRM domain, GST-SBP tag (RBFOX2, Homo sapiens, UniProt O43251-10, residues 100-194)
Notes: natural RNA segment, single round, ends assumed
Shared flanks, not repeated: GGGAGUUCUACAGUCCGACGAUC … UGGAAUUCUCGGGUGCCAA
Residues (chain): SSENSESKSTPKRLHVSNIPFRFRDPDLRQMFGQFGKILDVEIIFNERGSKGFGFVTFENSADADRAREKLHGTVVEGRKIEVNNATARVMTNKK
`UAAUAUUAGUUCAAAAUUGUUAAAAAUACCUUUAGAAGGUCUAGUCUAUUAUUGAAAACUCAAUUUUUUCACUUAUAUGGCUUUAAAAUGGAGCUAUUUUGCUACAAUAU` — result for “RBNS enrichment (R)”: 0.59.
Under “RBNS enrichment (R)”, `AUCCAUGGUCCUUGAGCUCCAGAGCGGAGGGAGAUUCUCUCAGCAGGCCCAUCUCACAAAGACUGGGGAUGUGAACACAUUGGUGUGAGUCAUCAGAAACCCCGUACUCA` is recorded as 0.267.
`ACACAACCUUAUUUUUCUUUACAAAAGCAAAAAAGGAAACCAAAAAAGAUACAGCCUUUGAAUGAUGCCUGCUGGCUGUCUGUAUUCGUUUGCUUGGGCAGCUCGGGCCU`: “RBNS enrichment (R)” 20.8.
`CAGAAGGGAGAGUGGUAUAGAUAGAAAAUGACAAAGAUGGCAAUAUACACUUAAUGUUGUUAUUGUAUGUUGUUACUGAAGUACUUAGAUUUUUAAAAUUUCAAAUCCUA` — result for “RBNS enrichment (R)”: 0.398.
`AGAUUCCAGACUCUGAUUCAUUAAACUAUAGUCACCCGUGUCCUGUGAUUUUAGUUUUCAUUUGUGUUUAUGUCUGUGCUGCAGACGGAUGGGUGGGGUGCGCUUCUUUA`: “RBNS enrichment (R)” 0.929.
`AUCUUGAAGUCCGUUAUAUGCAGAAUGAAGUUUUGCCAAGUCUGCUGGCAUUCACACGCUUCCAUGGACAAACUUGACUUGCUCUAGGGAACCUUGGGUUAUCAUGUCAC` — result for “RBNS enrichment (R)”: 0.375.
Under “RBNS enrichment (R)”, `AAAGACUCCCCUUAUCACUCUCCUCACAGUUGCUCUGCAUCUUUAAAGAGUAUUAGCUUCUGCUUCCGGACUCAGUCUUUGUUGAGUGGGCCACUUCCAGGGGUGUGCCC` is recorded as 0.23.
Under “RBNS enrichment (R)”, `CUUUUCCUAGUUGUCCUGGUGCUAAAAUGGAAGCUACACCUUGAUCUCUCCUGGCAUGAAAAUAAAGGAUUUUGUUGUUCCACUGCCCACUUCCCCCAUGUUGUCUUUCC` is recorded as 1.58.

Study 4 — method: RNA Bind-n-Seq; molecule type: RNA; medium: in vitro; tested at: 1 µM; notes: whole 134-nt RNA, ends assumed; with: 150 mM KCl; baseline: input library; direction: higher = stronger binding
Target: Ras GTPase-activating protein-binding protein 1, RRM domain (G3BP1, Homo sapiens, UniProt Q13283)
UniProt Q13283, sequence (whole entry, looked up): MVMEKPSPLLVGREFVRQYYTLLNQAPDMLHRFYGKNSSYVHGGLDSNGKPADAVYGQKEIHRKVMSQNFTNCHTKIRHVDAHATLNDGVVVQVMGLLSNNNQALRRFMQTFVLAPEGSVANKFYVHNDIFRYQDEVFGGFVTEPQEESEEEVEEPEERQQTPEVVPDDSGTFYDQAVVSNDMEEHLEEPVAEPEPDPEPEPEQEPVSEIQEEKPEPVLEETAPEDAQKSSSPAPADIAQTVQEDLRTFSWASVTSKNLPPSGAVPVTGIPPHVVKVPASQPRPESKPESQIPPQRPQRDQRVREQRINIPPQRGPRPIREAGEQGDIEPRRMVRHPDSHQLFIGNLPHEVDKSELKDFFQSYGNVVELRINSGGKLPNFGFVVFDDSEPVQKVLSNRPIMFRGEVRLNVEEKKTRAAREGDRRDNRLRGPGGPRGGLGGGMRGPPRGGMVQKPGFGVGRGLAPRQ
Shared flanks, not repeated: GGGAGUUCUACAGUCCGACGAUC … UGGAAUUCUCGGGUGUCAAGG
`AGUCCUGUGCUACACAUCGUAUGUACCGAAUCGGGGUUUUUGGGGAGGGGUUUGGGGAAAGUAUUAUGUUACGCCGUUCGGAUCUGCACU` has a log2 enrichment of 0.741.
For `UCCUGUGCUACACAUCGUAUGUACCGAAUCGGGGAGGGGAAAAAAAGGGGUUUUUGGGGAAAGUAUUAUGUUACGCCGUUCGGAUCUGCA`, the log2 enrichment was 0.773.
With `ACCAUGCAGGUGGGCAUCUUUGGGAAGUGGGGCAAGGGGGGGAUAGGGAGGGGGGUAACACUUUGGGAACAGGUGGUCCCAGCUCGUUUC` the log2 enrichment was 0.858.
`GCAGGAAGUAAAAACAAAUGGAAAUGCUUCGGAUAGUGGCAGGGGUGGGGGUUGCUAAGGAAAGGGUGGGAUGGGAGUUGGUAAAGAGUU` has a log2 enrichment of 1.39.
The log2 enrichment of `ACAGGAAGUAAAAACAAAUGGAAAUGCUUCGGAUAGUGGCAGGGGUGGGGGUUGCUAAGGAAAGGGUGGGAUGGGAGUGGGUAAAGAGUU` is reported as 0.781.
The log2 enrichment of `GCAGGAAGUAAAAACAAAUAGAAAUGCUUCGGAUAGUGGCAGGGGUGGGGGUUGCUAAGGAAAGGGUGGGAUGGGAGUGGGUAAAGAGUU` is reported as 1.13.
The log2 enrichment of `UCUCCCCAGGAGCACAGAAAAUGGUUCUGCCCCCUCCACAGCUCCCACAGACCAGAGCCGGCCACCGUUGGAGGUGAGUCGCCCGCCCCU` is reported as -0.359.
For `AAGUCCUGUGCUACACAUCGUAUGUACCGAAUCGGUUUGGAAAAAAAGGAAAAAGGAAAGUAUUAUGUUACGCCGUUCGGAUCUGCACUU`, the log2 enrichment was -0.192.
The log2 enrichment of `CUCAAGUCCUGUGCUACACAUCGUAUGUACCGAAUCGGGUGGGUGGGGUGGGGAAAGUAUUAUGUUACGCCGUUCGGAUCUGCACUUCCA` is reported as -0.33.

Excerpt of the above (study 2):
For `ACATGAGC`, the E-score was -0.00201.
With `AAAATGAA` the E-score was 0.0201.
The E-score of `AGTGGTAA` is reported as -0.043.
`TGATTAAA` gave an E-score of 0.0203.
